Measurements collected from several papers.
Numbers after ± are the reported error.
UCHL1: Ubiquitin carboxyl-terminal hydrolase isozyme L1 (UCHL1, Homo sapiens, UniProt P09936)
Sequence of UniProt P09936 (whole entry, looked up): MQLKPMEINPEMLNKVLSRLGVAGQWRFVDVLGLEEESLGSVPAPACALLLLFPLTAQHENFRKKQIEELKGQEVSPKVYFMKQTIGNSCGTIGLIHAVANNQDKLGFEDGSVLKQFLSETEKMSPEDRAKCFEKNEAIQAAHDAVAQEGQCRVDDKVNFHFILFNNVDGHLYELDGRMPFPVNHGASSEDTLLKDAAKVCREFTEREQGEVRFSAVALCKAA

For `C[C@@H]1CC[C@@H]([C@](C)(O)CNCc2ccc(F)cc2)[C@H](OCc2ccccc2)C1`, the IC50 was 20.3 µM (MCF7; cell growth, inhibitor, MTT; 72 h).
`CC(=O)Nc1ccc(/C(C)=N/N=c2\sc(C(C)=O)nn2-c2ccc(C)cc2)cc1` has a cytotoxicity of 78.8% (MCF7; MTT; 5 µM).
For `CC(=O)c1nn(-c2ccc(Cl)cc2)/c(=N/N=C(\C)c2ccc(NC(=O)c3ccccc3)cc2)s1`, the toxicity was 95.5% (MCF7; 2.5 µM).
`CC(Cl)C(=O)N[C@@H]1CN(Cc2ccccc2)C[C@H]1c1ccccc1` (some centres unmarked) gave a labelling of 18.6% (UCHL1; covalent, intact protein LC-MS; 12.5 µM).
The cytotoxicity of `CC(=O)c1nn(-c2ccccc2Cl)/c(=N/N=C(\C)c2ccc(NC(=O)c3ccccc3)cc2)s1` is reported as 92.5% (MCF7; MTT; 0.312 µM).
`CCCN1CCN(c2ccc3[nH]c(-c4ccc5[nH]c(-c6ccc(OCC)c(OCC)c6)nc5c4)nc3c2)CC1` gave a growth percent of -59.5% (MCF7; SRB; 10 µM, 48 h).
`CC/C(=C(\c1ccc(O)cc1)c1ccc(OCCNC)cc1)c1ccccc1` has a cell growth of 33% (MCF7; 5 µM, 5 days; reference: vehicle).
For `C=CC(=O)c1cccnc1Nc1cc(C(F)(F)F)ccc1OCc1ccccc1`, “TEAD reporter activity” read 1.8 ± 0.1% (MCF7; firefly luciferase reporter; 100 µM, 6 h; reference: vehicle).
`CC(=NN=c1[nH]c(C)cs1)c1c(O)c2ccccc2oc1=O` has a selectivity index of > 2.9 (MCF7; cell growth, MTT; reference: IC50 BJ-1 over MCF7).
Under “TEAD reporter activity”, `C=CC(=O)c1ccccc1Nc1cc(C(F)(F)F)ccc1OC` is recorded as 74 ± 3.8% (MCF7; firefly luciferase reporter; 25 µM, 6 h; reference: vehicle).
`O=[N+]([O-])c1cc(I)c(O)c(C=NNc2ccccc2)c1`: “late apoptotic or dead cells” 20.1% (MCF7; annexin V; IC50, 24 h).
`COc1cccc2c1C(=O)c1c(O)c3c(c(O)c1C2=O)C[C@@](O)(C(=O)CO)C[C@@H]3O[C@H]1C[C@H](N)[C@H](O)[C@H](C)O1` has a necrotic cells of 2.46% (MCF7; annexin V/PI; concentration not given, 72 h, at IC50).
The cytotoxicity of `CCOC(=O)c1nn(-c2cccc(Cl)c2)/c(=N/N=C(\C)c2ccc(NC(=O)c3ccc(Cl)cc3)cc2)s1` is reported as 96.6% (MCF7; MTT; 1.25 µM).
For `CC(=NN=C1SCC(=O)N1C)c1c(O)c2ccccc2oc1=O`, the selectivity index was > 3.05 (MCF7; cell growth, MTT; reference: IC50 BJ-1 over MCF7).
For `O=C(Nc1nnc2[nH]c(=S)[nH]c(-c3ccc(Cl)cc3)c1-2)c1ccccc1`, the cell growth was 91.5% (MCF7; SRB; 10 µM, NCI60 single-dose screen; reference: untreated).
For `CC(=O)Nc1ccc(C=C(C#N)C(=O)NCc2ccccc2)cc1`, the labelling was 16.9% (UCHL1; covalent, intact protein LC-MS; 12.5 µM).
`C=CC(=O)c1cccnc1Nc1cc(C(F)(F)F)ccc1C`: “TEAD reporter activity” 8.7 ± 0.2% (MCF7; firefly luciferase reporter; 100 µM, 6 h; reference: vehicle).
For `CC(C)(C)OC(=O)N1CCC(Oc2ccc(Cl)cc2C(=O)N[C@@H](Cc2ccccc2)C(=O)Nc2cc(C(F)(F)F)cc(C(F)(F)F)c2)CC1`, antiproliferative activity read “inactive” (MCF7; up to 10 µM, 72 h).
The TGI of `C#C[C@@]1(O)[C@@H](CO)O[C@@H](n2ccc3c(N)ncnc32)[C@@H]1O` is reported as 5.66 µM (MCF7; SRB; NCI-60 screen).
With `Cn1cncc1C1=CN(c2ncnc3[nH]cnc23)CCS1` the GI50 was 30.9 µM (MCF7).
`CC(=O)c1nn(-c2ccc(Cl)cc2)/c(=N/N=C(\C)c2ccc(NC(=O)c3ccc(Cl)cc3)cc2)s1` gave a viability of 22.5% (MCF7; 10 µM).
With `O=C1/C(=C/c2ccc3ccccc3c2O)NC(=S)N1c1ccccc1` the selectivity index was 1.3 (MCF7; reference: BJ1 IC50 over MCF7 IC50).
The cytotoxicity of `CCOC(=O)c1nn(-c2cccc(Cl)c2)/c(=N/N=C(\C)c2ccc(NC(=O)c3ccccc3)cc2)s1` is reported as 12.3% (MCF7; MTT; 0.078 µM).
`CCC(=O)N1CCC(COCC(=O)N2CCN(c3nc(-c4cnc(N)nc4C(F)F)nc(N4CCOC[C@@H]4C)n3)CC2)CC1` gave an IC50 of 0.135 µM (MCF7; western blot, refers to: phospho-S6 Ser235/Ser236; 2 h).
`O=C(O)c1ccccc1Nc1cccc(C(F)(F)F)c1` — result for “TEAD reporter activity”: 95.8 ± 2.4% (MCF7; firefly luciferase reporter; 50 µM, 6 h; reference: vehicle).
For `OCc1ccc(Nc2ccc3c(Nc4cccc(C(F)(F)F)c4)ncnc3c2)cc1`, “S phase cells” read 65.1% (MCF7; IC50, 24 h).

Excerpt of the above:
With `Cn1cncc1C1=CN(c2ncnc3[nH]cnc23)CCS1` the GI50 was 30.9 µM (MCF7).
`CC(=O)c1nn(-c2ccc(Cl)cc2)/c(=N/N=C(\C)c2ccc(NC(=O)c3ccc(Cl)cc3)cc2)s1` gave a viability of 22.5% (MCF7; 10 µM).
